Published values pooled from the literature.
Each line is one published result; not all experiments were run side by side. ± gives the spread as reported.
Chain of UniProt Q96PF2 (whole entry, looked up): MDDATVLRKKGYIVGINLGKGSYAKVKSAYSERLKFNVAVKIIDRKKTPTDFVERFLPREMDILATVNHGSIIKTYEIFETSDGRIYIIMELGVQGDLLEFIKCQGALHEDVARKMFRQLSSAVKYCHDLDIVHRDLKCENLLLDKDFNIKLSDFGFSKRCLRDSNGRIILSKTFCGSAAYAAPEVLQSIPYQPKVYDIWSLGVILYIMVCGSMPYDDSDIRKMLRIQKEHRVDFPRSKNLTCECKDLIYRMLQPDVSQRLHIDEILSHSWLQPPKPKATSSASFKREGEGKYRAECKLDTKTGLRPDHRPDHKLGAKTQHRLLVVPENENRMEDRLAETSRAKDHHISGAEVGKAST
Chain of UniProt P21802 (whole entry, looked up): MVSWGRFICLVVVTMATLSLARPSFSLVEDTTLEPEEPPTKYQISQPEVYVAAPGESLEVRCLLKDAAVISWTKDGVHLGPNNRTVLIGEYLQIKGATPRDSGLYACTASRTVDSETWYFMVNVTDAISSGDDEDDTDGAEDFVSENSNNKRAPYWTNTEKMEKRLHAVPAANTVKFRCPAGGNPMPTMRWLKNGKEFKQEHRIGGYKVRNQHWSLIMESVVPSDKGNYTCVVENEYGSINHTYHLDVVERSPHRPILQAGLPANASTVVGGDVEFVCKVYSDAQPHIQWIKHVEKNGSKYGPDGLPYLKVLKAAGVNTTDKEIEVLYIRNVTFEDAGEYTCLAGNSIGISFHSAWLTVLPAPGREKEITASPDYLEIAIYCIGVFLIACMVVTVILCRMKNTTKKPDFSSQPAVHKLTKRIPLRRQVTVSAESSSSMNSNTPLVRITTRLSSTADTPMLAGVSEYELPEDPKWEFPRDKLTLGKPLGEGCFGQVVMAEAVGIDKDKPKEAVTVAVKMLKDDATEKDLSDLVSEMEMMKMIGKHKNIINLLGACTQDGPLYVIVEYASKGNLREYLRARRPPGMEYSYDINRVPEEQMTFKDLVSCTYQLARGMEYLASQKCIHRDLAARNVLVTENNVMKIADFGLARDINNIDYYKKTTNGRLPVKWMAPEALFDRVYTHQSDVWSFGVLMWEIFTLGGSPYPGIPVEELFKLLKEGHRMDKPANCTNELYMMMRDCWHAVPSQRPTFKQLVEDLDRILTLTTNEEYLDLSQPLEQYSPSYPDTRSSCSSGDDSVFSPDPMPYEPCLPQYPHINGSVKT
Chain of UniProt P45984 (whole entry, looked up): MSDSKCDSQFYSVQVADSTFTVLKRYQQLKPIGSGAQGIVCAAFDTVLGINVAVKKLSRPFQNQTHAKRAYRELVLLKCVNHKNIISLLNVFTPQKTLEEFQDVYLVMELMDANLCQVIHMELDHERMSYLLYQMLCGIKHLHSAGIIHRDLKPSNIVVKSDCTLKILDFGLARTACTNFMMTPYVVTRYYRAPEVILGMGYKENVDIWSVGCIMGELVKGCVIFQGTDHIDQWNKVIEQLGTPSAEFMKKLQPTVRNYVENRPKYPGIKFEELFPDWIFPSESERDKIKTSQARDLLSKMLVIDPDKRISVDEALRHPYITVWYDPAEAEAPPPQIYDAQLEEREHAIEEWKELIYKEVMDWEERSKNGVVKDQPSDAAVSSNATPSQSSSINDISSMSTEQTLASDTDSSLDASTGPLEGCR
Chain of UniProt P57078 (whole entry, looked up): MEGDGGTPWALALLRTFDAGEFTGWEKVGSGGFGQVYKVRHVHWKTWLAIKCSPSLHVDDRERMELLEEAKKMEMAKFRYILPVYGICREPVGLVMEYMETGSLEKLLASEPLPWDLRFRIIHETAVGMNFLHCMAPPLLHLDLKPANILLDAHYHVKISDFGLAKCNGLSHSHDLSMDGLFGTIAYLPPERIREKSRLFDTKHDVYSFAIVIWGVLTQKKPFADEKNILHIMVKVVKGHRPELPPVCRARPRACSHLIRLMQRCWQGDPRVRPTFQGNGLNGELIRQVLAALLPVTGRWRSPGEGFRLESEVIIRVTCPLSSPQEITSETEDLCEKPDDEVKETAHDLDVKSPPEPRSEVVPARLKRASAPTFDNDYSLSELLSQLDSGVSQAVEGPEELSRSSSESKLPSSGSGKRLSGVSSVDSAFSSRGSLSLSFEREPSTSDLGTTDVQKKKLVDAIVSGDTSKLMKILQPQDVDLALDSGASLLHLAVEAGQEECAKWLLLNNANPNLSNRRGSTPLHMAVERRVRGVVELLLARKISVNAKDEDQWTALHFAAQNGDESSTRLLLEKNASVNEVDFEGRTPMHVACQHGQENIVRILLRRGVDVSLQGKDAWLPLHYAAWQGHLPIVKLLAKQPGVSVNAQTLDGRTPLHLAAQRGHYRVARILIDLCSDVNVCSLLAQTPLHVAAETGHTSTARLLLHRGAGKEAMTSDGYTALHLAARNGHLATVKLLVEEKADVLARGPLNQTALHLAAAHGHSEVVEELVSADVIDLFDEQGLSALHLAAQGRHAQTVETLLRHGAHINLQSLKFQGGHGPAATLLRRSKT
Chain of UniProt Q8N568 (whole entry, looked up): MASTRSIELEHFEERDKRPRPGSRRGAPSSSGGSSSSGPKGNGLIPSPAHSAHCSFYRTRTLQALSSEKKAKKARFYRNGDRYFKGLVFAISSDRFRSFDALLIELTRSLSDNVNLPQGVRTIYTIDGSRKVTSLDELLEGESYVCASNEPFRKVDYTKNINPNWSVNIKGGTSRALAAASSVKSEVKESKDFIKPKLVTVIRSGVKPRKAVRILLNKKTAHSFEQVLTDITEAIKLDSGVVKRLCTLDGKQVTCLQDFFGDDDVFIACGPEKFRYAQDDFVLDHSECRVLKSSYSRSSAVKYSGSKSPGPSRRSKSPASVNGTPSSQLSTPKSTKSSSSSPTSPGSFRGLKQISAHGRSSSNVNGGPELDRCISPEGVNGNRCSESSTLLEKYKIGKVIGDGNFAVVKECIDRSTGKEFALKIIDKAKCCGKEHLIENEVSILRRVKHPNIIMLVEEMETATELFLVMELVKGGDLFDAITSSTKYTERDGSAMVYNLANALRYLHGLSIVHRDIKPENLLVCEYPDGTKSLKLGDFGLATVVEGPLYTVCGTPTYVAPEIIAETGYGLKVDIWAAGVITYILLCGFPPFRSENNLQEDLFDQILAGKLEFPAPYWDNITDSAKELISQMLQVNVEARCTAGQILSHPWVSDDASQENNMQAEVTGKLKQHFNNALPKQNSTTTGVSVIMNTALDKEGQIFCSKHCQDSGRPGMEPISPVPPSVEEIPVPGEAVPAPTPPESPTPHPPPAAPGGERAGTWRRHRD

Structure (SMILES)	target	assay	conditions	scale	remaining activity
Cc1cc(NC(=O)c2cccc(NC(=O)/C=C/CN(C)C)c2)ccc1Nc1nccc(-c2cccnc2)n1	MAPK9 (Homo sapiens, UniProt P45984)	enzyme activity, inhibitor	0.1829 µM, unit not given	baseline: vehicle	0.16
O=C(NC1CCC1)c1ccc2nc(-c3cccc(NS(=O)(=O)NCCN4CCCCC4)c3)cn2c1	RIPK4 (Homo sapiens, UniProt P57078)	enzyme activity	10 µM		89%
COc1cc(Nc2ncc3c(n2)-c2ccc(Cl)cc2C(c2c(F)cccc2OC)=NC3)ccc1C(=O)O	GRK7	kinase activity	1 µM		98%
C=CC(=O)N1CCC[C@@H](n2nc(-c3ccc(Oc4ccccc4)cc3)c3c(N)ncnc32)C1	TSSK2 (Homo sapiens, UniProt Q96PF2)		1 µM		32%
O=C(O)c1ccc(Nc2ncc3c(n2)-c2ccc(Cl)cc2C(c2c(F)cccc2F)=NC3)cc1	human STK33(h)	kinase activity	1 µM		96%
COc1cc(F)ccc1-c1ncnc(Nc2cccc(C[S@](C)(=N)=O)c2)n1	FGFR2 (Homo sapiens, UniProt P21802)	kinase activity	10 µM, added: 10 µM ATP		87%
COc1cc(-c2cncc3c2CN(C)Cc2cc(N4CCNCC4)ccc2-3)cc(OC)c1OC	DCLK2 (Homo sapiens, UniProt Q8N568)	kinase activity	1 µM, human enzyme, added: ATP 10 µM	baseline: DMSO control	104%
COc1ccc(F)cc1C(=O)NCc1ccc(-c2nn([C@@H](C)C(F)(F)F)c(N)c2C(N)=O)cc1	PRKACB (Homo sapiens, UniProt P22694)	kinase activity, inhibitor, HotSpot radiometric	1000 nM, added: ATP at Km		95.5 ± 2.8%

A few entries again:
Structure (SMILES)	target	assay	conditions	scale	remaining activity
Cc1cc(NC(=O)c2cccc(NC(=O)/C=C/CN(C)C)c2)ccc1Nc1nccc(-c2cccnc2)n1	MAPK9 (Homo sapiens, UniProt P45984)	enzyme activity, inhibitor	0.1829 µM, unit not given	baseline: vehicle	0.16
